# Published values pooled from the literature.
# Protocols differ between the studies behind these lines. ± gives the spread as reported.
# ACHE: Acetylcholinesterase (ACHE, Homo sapiens, UniProt P22303)
# Sequence of UniProt P22303 (whole entry, looked up): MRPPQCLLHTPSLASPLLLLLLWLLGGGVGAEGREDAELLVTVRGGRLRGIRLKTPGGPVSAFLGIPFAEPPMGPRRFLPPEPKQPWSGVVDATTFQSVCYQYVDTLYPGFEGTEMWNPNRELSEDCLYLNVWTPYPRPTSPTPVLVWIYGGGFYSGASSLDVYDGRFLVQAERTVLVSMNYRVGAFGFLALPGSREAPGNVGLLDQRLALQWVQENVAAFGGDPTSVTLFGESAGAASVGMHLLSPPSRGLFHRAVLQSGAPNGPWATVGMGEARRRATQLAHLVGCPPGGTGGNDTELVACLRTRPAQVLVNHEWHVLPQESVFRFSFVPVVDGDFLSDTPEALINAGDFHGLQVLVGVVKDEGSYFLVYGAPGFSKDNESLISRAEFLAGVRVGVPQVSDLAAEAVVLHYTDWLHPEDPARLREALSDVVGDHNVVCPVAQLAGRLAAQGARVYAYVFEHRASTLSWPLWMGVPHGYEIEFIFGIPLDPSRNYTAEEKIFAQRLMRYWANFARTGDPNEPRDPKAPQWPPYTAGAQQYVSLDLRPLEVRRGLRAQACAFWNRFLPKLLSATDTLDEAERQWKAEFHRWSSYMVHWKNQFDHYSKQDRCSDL
# PFF0160c E182D: Dihydroorotate dehydrogenase (quinone), mitochondrial (PFF0160c, Plasmodium falciparum, UniProt Q08210, E182D)
# Aryl hydrocarbon receptor: Aryl hydrocarbon receptor (Danio rerio, UniProt Q9YGV3)
# Sequence of UniProt Q007T0 (whole entry, looked up): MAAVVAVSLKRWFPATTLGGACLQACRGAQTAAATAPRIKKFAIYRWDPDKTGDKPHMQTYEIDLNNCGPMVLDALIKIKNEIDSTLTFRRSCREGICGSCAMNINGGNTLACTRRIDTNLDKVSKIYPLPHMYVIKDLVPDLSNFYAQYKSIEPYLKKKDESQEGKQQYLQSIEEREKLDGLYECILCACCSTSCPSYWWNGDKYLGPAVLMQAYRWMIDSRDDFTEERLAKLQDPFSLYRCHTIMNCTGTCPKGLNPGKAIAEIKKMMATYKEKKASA
# Sequence of UniProt D0VWV4 (whole entry, looked up): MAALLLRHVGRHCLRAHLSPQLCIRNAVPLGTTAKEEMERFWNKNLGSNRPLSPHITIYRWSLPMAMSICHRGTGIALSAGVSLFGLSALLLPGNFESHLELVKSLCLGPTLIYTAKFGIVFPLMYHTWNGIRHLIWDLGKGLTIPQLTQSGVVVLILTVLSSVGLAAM
# Sequence of UniProt A5GZW8 (whole entry, looked up): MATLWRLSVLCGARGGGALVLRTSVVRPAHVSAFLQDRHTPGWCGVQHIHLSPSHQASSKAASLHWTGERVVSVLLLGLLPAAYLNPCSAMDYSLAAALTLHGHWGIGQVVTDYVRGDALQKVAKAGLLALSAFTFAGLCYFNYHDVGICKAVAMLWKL
# Sequence of UniProt P35348 (whole entry, looked up): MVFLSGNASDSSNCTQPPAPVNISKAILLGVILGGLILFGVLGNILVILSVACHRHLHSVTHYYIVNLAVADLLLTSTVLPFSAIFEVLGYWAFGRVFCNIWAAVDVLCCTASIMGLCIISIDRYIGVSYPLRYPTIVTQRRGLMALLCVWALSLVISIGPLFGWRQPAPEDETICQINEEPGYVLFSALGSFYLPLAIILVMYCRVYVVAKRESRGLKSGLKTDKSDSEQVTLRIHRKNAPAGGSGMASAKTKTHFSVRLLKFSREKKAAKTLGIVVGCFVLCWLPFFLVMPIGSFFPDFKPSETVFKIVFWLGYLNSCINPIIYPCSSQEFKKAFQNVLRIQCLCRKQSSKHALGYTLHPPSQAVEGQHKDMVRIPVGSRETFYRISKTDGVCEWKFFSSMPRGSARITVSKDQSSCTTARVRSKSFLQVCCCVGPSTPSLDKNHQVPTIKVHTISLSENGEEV
# Sequence of UniProt P02716 (whole entry, looked up): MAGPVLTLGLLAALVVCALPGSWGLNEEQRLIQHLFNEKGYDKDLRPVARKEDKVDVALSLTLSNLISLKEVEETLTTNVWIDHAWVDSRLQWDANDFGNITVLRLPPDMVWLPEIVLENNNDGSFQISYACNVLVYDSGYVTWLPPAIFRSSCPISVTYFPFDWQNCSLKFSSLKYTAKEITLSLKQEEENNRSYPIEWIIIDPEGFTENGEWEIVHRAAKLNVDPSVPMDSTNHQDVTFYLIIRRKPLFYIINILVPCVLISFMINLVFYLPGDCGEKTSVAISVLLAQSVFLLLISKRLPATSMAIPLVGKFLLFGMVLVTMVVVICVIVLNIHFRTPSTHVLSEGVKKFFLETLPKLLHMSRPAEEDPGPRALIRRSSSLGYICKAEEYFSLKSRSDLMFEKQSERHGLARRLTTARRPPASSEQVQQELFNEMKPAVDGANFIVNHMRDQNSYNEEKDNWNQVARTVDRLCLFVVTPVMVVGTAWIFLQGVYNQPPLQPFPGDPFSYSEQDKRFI
# Sequence of UniProt P43088 (whole entry, looked up): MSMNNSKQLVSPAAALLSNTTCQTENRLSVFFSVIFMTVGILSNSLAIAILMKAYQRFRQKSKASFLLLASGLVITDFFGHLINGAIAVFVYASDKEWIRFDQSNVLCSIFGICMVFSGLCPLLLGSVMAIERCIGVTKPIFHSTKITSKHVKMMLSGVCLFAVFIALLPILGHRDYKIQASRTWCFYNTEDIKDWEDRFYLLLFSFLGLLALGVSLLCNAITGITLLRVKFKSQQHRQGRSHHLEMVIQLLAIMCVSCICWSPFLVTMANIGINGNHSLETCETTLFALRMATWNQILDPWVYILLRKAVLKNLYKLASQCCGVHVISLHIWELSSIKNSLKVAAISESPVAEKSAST
# Sequence of UniProt P35354 (whole entry, looked up): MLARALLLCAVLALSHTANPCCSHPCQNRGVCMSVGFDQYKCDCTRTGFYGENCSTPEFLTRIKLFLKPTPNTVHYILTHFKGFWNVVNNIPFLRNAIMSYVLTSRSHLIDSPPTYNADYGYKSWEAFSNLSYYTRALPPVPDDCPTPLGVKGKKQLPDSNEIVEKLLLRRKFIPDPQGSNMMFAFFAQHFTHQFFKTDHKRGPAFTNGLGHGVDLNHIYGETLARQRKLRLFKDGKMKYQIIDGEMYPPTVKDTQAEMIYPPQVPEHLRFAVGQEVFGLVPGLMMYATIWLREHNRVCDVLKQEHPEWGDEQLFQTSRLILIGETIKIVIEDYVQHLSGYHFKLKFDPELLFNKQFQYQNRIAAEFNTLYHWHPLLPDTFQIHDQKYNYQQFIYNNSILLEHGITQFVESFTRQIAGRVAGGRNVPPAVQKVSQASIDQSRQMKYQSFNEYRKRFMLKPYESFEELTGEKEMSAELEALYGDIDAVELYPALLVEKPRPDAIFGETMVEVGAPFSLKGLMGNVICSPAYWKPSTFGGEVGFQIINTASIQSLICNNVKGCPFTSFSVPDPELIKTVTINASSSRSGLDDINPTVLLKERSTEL
# Sequence of UniProt P04757 (whole entry, looked up): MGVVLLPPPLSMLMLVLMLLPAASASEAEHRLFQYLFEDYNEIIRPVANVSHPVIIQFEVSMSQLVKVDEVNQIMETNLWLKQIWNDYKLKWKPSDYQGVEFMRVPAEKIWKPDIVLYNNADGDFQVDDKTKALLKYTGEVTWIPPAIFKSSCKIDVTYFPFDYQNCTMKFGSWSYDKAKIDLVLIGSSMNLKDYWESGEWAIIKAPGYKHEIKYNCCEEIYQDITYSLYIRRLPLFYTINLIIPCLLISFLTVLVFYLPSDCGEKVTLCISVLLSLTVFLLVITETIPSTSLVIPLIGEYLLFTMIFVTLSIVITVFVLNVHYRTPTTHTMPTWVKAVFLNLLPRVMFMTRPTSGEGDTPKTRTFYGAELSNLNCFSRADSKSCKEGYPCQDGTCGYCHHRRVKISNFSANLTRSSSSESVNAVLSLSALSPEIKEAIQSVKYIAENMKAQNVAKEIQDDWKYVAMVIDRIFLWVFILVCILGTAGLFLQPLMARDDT
# Sequence of UniProt Q05469 (whole entry, looked up): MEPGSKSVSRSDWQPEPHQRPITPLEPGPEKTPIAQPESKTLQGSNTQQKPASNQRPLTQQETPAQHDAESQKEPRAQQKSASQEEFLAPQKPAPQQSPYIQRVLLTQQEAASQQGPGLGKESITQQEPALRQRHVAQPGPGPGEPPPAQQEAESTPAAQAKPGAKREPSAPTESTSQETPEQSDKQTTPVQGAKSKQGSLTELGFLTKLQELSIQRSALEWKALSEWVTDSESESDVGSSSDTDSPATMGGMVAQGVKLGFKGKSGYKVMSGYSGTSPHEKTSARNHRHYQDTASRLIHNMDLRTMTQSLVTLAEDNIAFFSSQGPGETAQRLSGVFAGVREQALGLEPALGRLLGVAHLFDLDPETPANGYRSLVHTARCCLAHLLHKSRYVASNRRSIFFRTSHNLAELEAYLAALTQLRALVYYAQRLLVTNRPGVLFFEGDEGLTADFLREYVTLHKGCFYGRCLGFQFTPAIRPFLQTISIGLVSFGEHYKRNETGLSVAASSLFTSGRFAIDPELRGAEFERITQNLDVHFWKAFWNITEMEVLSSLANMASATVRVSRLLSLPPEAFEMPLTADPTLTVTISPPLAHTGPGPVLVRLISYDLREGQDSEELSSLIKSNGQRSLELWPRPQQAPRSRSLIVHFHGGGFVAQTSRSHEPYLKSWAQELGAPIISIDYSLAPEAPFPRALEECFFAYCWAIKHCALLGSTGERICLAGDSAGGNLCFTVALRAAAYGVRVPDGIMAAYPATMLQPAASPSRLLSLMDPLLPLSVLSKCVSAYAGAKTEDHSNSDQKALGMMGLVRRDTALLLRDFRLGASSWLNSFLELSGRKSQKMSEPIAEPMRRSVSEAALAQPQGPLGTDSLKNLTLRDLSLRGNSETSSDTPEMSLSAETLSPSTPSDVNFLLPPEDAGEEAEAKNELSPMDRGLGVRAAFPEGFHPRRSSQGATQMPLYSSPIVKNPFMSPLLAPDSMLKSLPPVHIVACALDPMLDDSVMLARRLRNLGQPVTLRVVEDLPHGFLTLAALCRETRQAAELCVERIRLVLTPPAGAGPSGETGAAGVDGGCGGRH
SMILES,target,test,test system,setting,how to read,endpoint,result
NC(C(=O)O)C(O)COC(=O)c1ccc(-c2ccccc2)cc1 (stereo not shown),"Neutral amino acid transporter B(0) (SLC1A5, Homo sapiens, UniProt Q15758)","leak anion current, whole-cell patch clamp",HEK293 transfected,,relative to: compound over L-serine,apparent affinity ratio,~35 fold
O=C(Nc1cnccc1Cl)N1CCN(Cc2ccc3c(c2)OC(F)(F)O3)CC1,"Prostaglandin F2-alpha receptor (PTGFR, Homo sapiens, UniProt P43088)","radioligand binding, inhibitor",,"50 µM, human, with: [3H]PGF2alpha",,inhibition,3%
C[C@@H](NC(=O)c1ccc(C#Cc2cccc(F)c2)cn1)C(C)(C)O,"Metabotropic glutamate receptor 5 (Grm5, Rattus norvegicus, UniProt P31424)","calcium response, positive allosteric modulator",HEK293,with: glutamate,,fold shift of glutamate EC50,6.6 fold
CC(Oc1c(Cl)cccc1Cl)C1=NCCN1 (stereo not shown),ACHE,,biochemical,concentration not given,,activity class,inactive
N[C@@H](CO)COP(=O)(O)O,"Cj1438c (Campylobacter jejuni, UniProt Q0P8H6)","substrate inhibition, PK/LDH coupled",,"pH 8.0, 25 °C, with: D-glucuronate 10 mM, ATP 3.0 mM",,Ki,16000 ± 3000 µM
O=C(c1ccc(Cl)cc1)N1CCN2C(=O)N(OC(=O)N3CCOc4ccccc43)C(=O)C2C1 (stereo not shown),"Hormone-sensitive lipase (LIPE, Homo sapiens, UniProt Q05469)","enzyme activity, inhibitor, MS-based ABPP",SW-620 in situ,"10 µM, 2 h, 37 °C","relative to: compound over DMSO, lower = stronger inhibition",median ratio,1.11
O=C(Cn1nnc2ccccc21)Nc1ccccc1N1CCc2sccc2C1,"Procathepsin L (CTSL, Homo sapiens, UniProt P07711)",FRET,,,,Hill slope,1.6
CN1CCN(c2cc(-c3ccncc3)c(-c3ccc4ccccc4c3)nn2)CC1,"5-hydroxytryptamine receptor 6 (HTR6, Homo sapiens, UniProt P50406)","agonist, FLIPR",,12.5 µM,,activation,-3.6%
Nc1ccn([C@@H]2O[C@H](COP(=O)(O)OP(=O)(O)OP(=O)(O)O)[C@@H](O)[C@H]2O)c(=O)n1,"pyrG (Escherichia coli, UniProt P0A7E5, C268A)",enzyme activity,,with: UTP 0.05 mM,,Hill coefficient,1.8 ± 0.5
CC(=O)c1cnc2ccc(-c3cc(Cl)c(O)c(Cl)c3)nc2c1N[C@H]1CC[C@H](CN(C)C)CC1,ACHE,,biochemical,concentration not given,,activity class,inactive
CC[C@@H](C)[C@@H](NC(=O)[C@@H](Cc1ccc(O)cc1)NC(=O)[C@H]1CCCN1C(=O)[C@@H](CCCNC(=N)N)NC(=O)[C@H](N)Cc1c[nH]cn1)C(=O)N[C@H](C)C(=O)N[C@H](Cc1c[nH]cn1)C(=O)N[C@H](CCCNC(=N)N)C(=O)N[C@H](CCCCNC(=O)c1cccc(S(=O)(=O)F)c1)C(=O)N[C@H](Cc1ccc(O)cc1)C(=O)N[C@H](CO)C(=O)N[C@H](Cc1ccccc1)C(N)=O,"Transferrin receptor protein 1 (Tfrc, Mus musculus, UniProt Q62351)",flow cytometry,RAW264.7,"48 h, pH 6, replicate 1, unit not given",relative to: 0 h,surface TFRC expression,1.18
O=C(c1ccc(Cl)cc1)N1CCCC(C(=O)N(Cc2nnc(-c3ccccc3Cl)o2)C2CC2)C1 (stereo not shown),PFF0160c E182D,"enzyme activity, DCIP colorimetric",,,relative to: E182D mutant over wild type,IC50 ratio,1.4
CC(=O)c1cnc2ccc(-c3cc(Cl)c(O)c(Cl)c3)nc2c1N[C@H]1CC[C@H](CN(C)C)CC1,"BRI1 (Arabidopsis thaliana, UniProt O22476)","binding, SPR",,concentration not given,relative to: FER,fold change of KD,> 100
Cc1nc2c(=O)sc3ccccc3c2n1Cc1ccccc1,PFF0160c E182D,"enzyme activity, DCIP colorimetric",,,relative to: E182D mutant over wild type,IC50 ratio,0.1
C[C@H]1COCCN1c1nc(NCc2cccnc2C(F)(F)F)c2cccnc2n1,"Prostaglandin G/H synthase 2 (PTGS2, Homo sapiens, UniProt P35354)",inhibitor,,,,IC50,> 100 µM
COc1cc2c3cc1Oc1cc(ccc1O)C[C@@H]1c4c(cc(OC)c(O)c4Oc4ccc(cc4)C[C@@H]3N(C)CC2)CC[N+]1(C)C,"Chrnd/Chrna1/Chrne (Mus musculus, UniProt P02716+P04756+P20782)",,mouse diaphragm,"0.1 µM, AChE intact",relative to: control,response amplitude,64%
COc1cc(N)c(Cl)cc1C(=O)NC1CN2CCC1CC2 (stereo not shown),"Mas-related G-protein coupled receptor member X1 (MRGPRX1, Homo sapiens, UniProt Q96LB2)","β-arrestin recruitment, TANGO luminescence",,concentration not given,relative to: basal luminescence,log2 fold change,0.439
O=[N+]([O-])c1ccc(O[C@@H]2O[C@H](CO)[C@H](O)[C@H](O)[C@H]2O)cc1,"Beta-galactosidase (lacZ, Escherichia coli K-12, UniProt P00722)",substrate,,,,Km,40 ± 4 µM
C[C@@H](NCCCc1cccc(C(F)(F)F)c1)c1cccc2ccccc12,ACHE,,biochemical,concentration not given,,activity class,inactive
COc1ccc(N2C(=O)N(c3c(C)cccc3Cl)Cc3cnc(Nc4ccc(C5CCN(C)CC5)cc4OC)nc32)nc1,"cGMP-dependent protein kinase 1 (PRKG1, Homo sapiens, UniProt Q13976)",kinase activity,,0.5 µM,,inhibition,4%
Cc1cn([C@H]2C[C@H](O)[C@@H](COP(=O)(O)OP(=O)(O)OP(=O)(O)O)O2)c(=O)[nH]c1=O,"DNA polymerase I, Klenow fragment (polA, Escherichia coli, UniProt P00582, C907S/D424A/E710Q/L744C)","nucleotide incorporation, substrate, single-turnover rapid quench",,with: radiolabelled primer-template DNA,,maximum incorporation rate,0.23 ± 0.01 s⁻¹
COc1c(O)cc2c3c1-c1cc4c(cc1CC3N(C)CC2)OCO4 (stereo not shown),"Alpha-1A adrenergic receptor (ADRA1A, Homo sapiens, UniProt P35348)","calcium flux, antagonist, FLIPR",CHO-K1,with: norepinephrine,,apparent Kb,0.255 µM
COc1cc(Nc2ncc(F)c(Nc3ccc4c(n3)NC(=O)C(C)(C)O4)n2)cc(OC)c1OC,"Ribosomal protein S6 kinase alpha-5 (RPS6KA5, Homo sapiens, UniProt O75582)","kinase binding, KINOMEscan",,"10 µM, kinase domain 1 N-terminal",,inhibition,0%
[2H]c1c([2H])c([C@]2([2H])CCCN2C(=O)C(C)(C)Oc2ccc3cn[nH]c3c2)c([2H])c([2H])c1C([2H])([2H])[2H],"Cyclin-dependent kinase 13 (CDK13, Homo sapiens, UniProt Q14004)",KINOMEscan,,1 µM,relative to: DMSO control,remaining binding,68%
COc1ccc(-n2ccnc2SCC(=O)Nc2cc(C(F)(F)F)ccc2Cl)c(OC)c1,PFF0160c E182D,"enzyme activity, DCIP colorimetric",,,relative to: E182D mutant over wild type,IC50 ratio,2.4
CCCCC/C=C\C/C=C\C/C=C\C/C=C\CCCC(=O)NCCO,"Transient receptor potential cation channel subfamily V member 1 (Trpv1, Mus musculus, UniProt Q704Y3, N552L)","ion current, agonist, whole-cell patch clamp",,N552L,,Hill coefficient,3.81 ± 0.72
Oc1ccc(-c2ccc(Cl)cc2)c(Cl)c1,"Aryl hydrocarbon receptor (AHR, Homo sapiens, UniProt P35869)","reporter gene, antagonist",AZ-AHR cells,"24 h, with: TCDD 4.5 nM",,IC25,18 µM
COc1ccc2[nH]c3c(c2c1)CCN(C)CC3.Cl,"Neuronal acetylcholine receptor; alpha3/beta4 (Rattus norvegicus, UniProt P04757+P12392)","ion current, inhibitor, two-electrode voltage clamp","Xenopus laevis oocytes, rat",with: 100 µM acetylcholine,,Hill coefficient,1.8 ± 0.2
CC[C@H](C)[C@H](NC(=O)[C@H](CCC(N)=O)NC(=O)[C@@H](NC(=O)[C@@H]1CCCN1C(=O)[C@@H](NC(=O)[C@H](CO)NC(=O)[C@H](Cc1ccccc1)NC(=O)[C@@H]1CCCN1C(=O)[C@H](CCC(N)=O)NC(=O)[C@@H](N)CCSC)[C@@H](C)CC)C(C)C)C(=O)N[C@H](C(=O)N[C@@H](CC(C)C)C(=O)N[C@@H](CCC(N)=O)C(=O)NCC(=O)N[C@@H](CO)C(=O)N[C@@H](CCCNC(=N)N)C(=O)N[C@@H](CCCNC(=N)N)C(=O)N[C@@H](CCCNC(=N)N)C(=O)N[C@@H](CCC(N)=O)C(=O)NCC(=O)N[C@@H](CCCNC(=N)N)C(N)=O)[C@@H](C)O,"Kcnma1 (Mus musculus, UniProt Q08460)","ion current, blocker, inside-out patch clamp",Xenopus oocytes,"+120 mV, with: 10 µM cytosolic Ca2+",,Hill coefficient,1.33
Nc1nc2c(ncn2[C@@H]2O[C@H](COP(=O)(O)OP(=O)(O)OP(=O)(O)O)[C@@H](O)[C@H]2O)c(=O)[nH]1,"GTP 3',8-cyclase (moaA, Staphylococcus aureus, UniProt P69848, R17K)",isothermal titration calorimetry,,"concentration not given, 25 °C, R17K mutant, anaerobic",,binding entropy ΔS,4.99 cal/mol/K
CC[C@H](C)[C@H](NC(=O)CNC(=O)[C@@H](N)CCCCN)C(=O)N[C@@H](CC(C)C)C(=O)N[C@@H](CCCCN)C(=O)N[C@@H](CCCNC(=N)N)C(=O)N[C@@H](CCC(=O)O)C(=O)N[C@@H](CCCCN)C(=O)N[C@@H](CCCNC(=N)N)C(=O)N[C@@H](CC(C)C)C(=O)N[C@@H](CCCNC(=N)N)C(=O)N[C@@H](CCCNC(=N)N)C(=O)N[C@@H](CCCCN)C(=O)N[C@@H](CC(N)=O)C(=O)N[C@H](C(=O)N[C@@H](Cc1c[nH]cn1)C(=O)N[C@@H](Cc1c[nH]c2ccccc12)C(=O)N1CCC[C@H]1C(=O)N[C@@H](CCC(=O)O)C(=O)N[C@@H](CCC(=O)O)C(=O)NCC(=O)N[C@@H](CCCCN)C(=O)N[C@@H](CC(C)C)C(=O)N[C@@H](CCCNC(=N)N)C(=O)N[C@@H](CCC(=O)O)C(=O)N[C@@H](Cc1ccc(O)cc1)C(=O)N[C@@H](Cc1ccccc1)C(=O)N[C@@H](Cc1ccc(O)cc1)C(=O)N[C@@H](Cc1ccccc1)C(=O)N[C@@H](CCC(=O)O)C(=O)N[C@@H](CC(C)C)C(=O)N[C@@H](CC(=O)O)C(=O)N[C@@H](CCC(=O)O)C(=O)N[C@@H](C)C(=O)N[C@@H](CCC(=O)O)C(=O)N[C@@H](CCCNC(=N)N)C(=O)N[C@H](C(=O)N[C@@H](CC(N)=O)C(=O)N[C@H](C(=O)O)C(C)C)C(C)C)C(C)C,"Serine/threonine-protein phosphatase PP1-gamma catalytic subunit (Homo sapiens, UniProt P36873)","binding, ITC",,25 °C,,ΔS,-76.8 ± 31.8 cal/mol/K
C=C(CN(C(=O)c1c(C(F)F)nn(C)c1F)C1CC1)c1ccc(Cl)cc1Cl,"SDHD/SDHC/SDHB (Sus scrofa, UniProt A5GZW8+D0VWV4+Q007T0)","enzyme activity, inhibitor, DCIP reduction",pig,"0.1 µM, with: DCIP 40 µM",,reaction velocity,0.0104 µM/s
Oc1ccc2ccc3cccc4ccc1c2c34,Aryl hydrocarbon receptor,"reporter gene, agonist, luciferase reporter",ZF-4,13.72 µM,relative to: vehicle control,fold change,1.21
C[C@H]1CN(c2n[nH]c3nc(N[C@H]4CC[C@H](NS(=O)(=O)CCC(F)(F)F)CC4)ncc23)CCO1,"Serine/threonine-protein kinase 17B (STK17B, Homo sapiens, UniProt O94768)","inhibitor, Kinobeads competition profiling",,0.8 µM,relative to: vehicle,relative abundance,1.06
Nc1nc2c(ncn2[C@@H]2O[C@@H]3COP(=O)(O)O[C@H]4[C@@H](O)[C@H](n5cnc6c(=O)[nH]c(N)nc65)O[C@@H]4COP(=O)(O)O[C@H]3[C@H]2O)c(=O)[nH]1,"Cell cycle histidine kinase CckA, R374A; cytoplasmic region (Caulobacter vibrioides, UniProt Q9X688, R374A)",ITC,,with: AMPPNP 5 mM,,ΔS,22.2 cal/mol/K
c1ccc2c3c(ccc2c1)-c1cccc2cccc-3c12,Aryl hydrocarbon receptor,"reporter gene, agonist, luciferase reporter",ZF-4,3333.33 µM,relative to: vehicle control,fold change,17.2
COc1ccccc1Cn1ccnc1SCC(=O)Nc1cccc(C(F)(F)F)c1,PFF0160c E182D,"enzyme activity, DCIP colorimetric",,,relative to: E182D mutant over wild type,IC50 ratio,6.5

# Some of these lines once more:
SMILES,target,test,test system,setting,how to read,endpoint,result
CC(=O)c1cnc2ccc(-c3cc(Cl)c(O)c(Cl)c3)nc2c1N[C@H]1CC[C@H](CN(C)C)CC1,"BRI1 (Arabidopsis thaliana, UniProt O22476)","binding, SPR",,concentration not given,relative to: FER,fold change of KD,> 100
Oc1ccc(-c2ccc(Cl)cc2)c(Cl)c1,"Aryl hydrocarbon receptor (AHR, Homo sapiens, UniProt P35869)","reporter gene, antagonist",AZ-AHR cells,"24 h, with: TCDD 4.5 nM",,IC25,18 µM
O=C(Nc1cnccc1Cl)N1CCN(Cc2ccc3c(c2)OC(F)(F)O3)CC1,"Prostaglandin F2-alpha receptor (PTGFR, Homo sapiens, UniProt P43088)","radioligand binding, inhibitor",,"50 µM, human, with: [3H]PGF2alpha",,inhibition,3%
